Experimental data from different studies.
Each numbered part is a random draw from the data of one study; scales do not carry over between parts.

Set 1
Target: Interferon regulatory factor 3, full length, phosphomimetic (IRF3, Homo sapiens, UniProt Q14653, residues 1-427, S386D/S396D/S398D/S402D/T404D/S405D)
Method: protein-binding microarray
Form: double-stranded DNA, one strand shown
Medium: in vitro
Concentration: 2540 nM top
Setting: 60-bp whole probe
With: salmon DNA 0.4 mg/ml
Baseline: random background probes
Direction: higher = stronger binding
Shared flanks, not repeated: GCCTAGCAC … GTCTTGATTCGCTTGACGCTGCTG
Residues (chain): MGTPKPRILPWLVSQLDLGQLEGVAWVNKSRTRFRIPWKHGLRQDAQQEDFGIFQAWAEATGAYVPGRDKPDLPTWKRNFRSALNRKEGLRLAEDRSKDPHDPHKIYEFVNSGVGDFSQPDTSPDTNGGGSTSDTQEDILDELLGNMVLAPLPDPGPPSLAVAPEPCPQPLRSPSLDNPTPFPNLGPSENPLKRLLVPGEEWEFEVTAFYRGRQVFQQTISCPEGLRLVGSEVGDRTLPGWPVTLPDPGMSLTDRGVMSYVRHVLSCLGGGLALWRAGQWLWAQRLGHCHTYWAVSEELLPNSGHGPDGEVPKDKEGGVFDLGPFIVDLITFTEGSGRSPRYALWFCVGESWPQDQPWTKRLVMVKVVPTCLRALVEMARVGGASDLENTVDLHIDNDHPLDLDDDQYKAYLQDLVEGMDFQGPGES
Sequence | fitted relative affinity [z-score]
TTAGATTTCAGGCTCGATTAGTGCTAG | 0.486
TTAGATTTCAGTATCGATCAGTGCTAG | 2.31
TAAGTTTCACTTTCCAAAGCGTGCTAG | 9.47
GACGGCCTGGACACTGGGGACGTGCTA | -1.15
TTAGATATCATTCTCGATTAGTGCTAG | 2.02
TTAGGGTTCGGGTATCGGTTAGTGCTA | 0.769
GAAGATTTCAGACTGGAGACGTGCTAG | 0.391
GAGGGTATCGGTATCGGGACGTGCTAG | 3.29
TCATACTTGTGTCTAGAACTGTGCTAG | 0.423
TTGTTTTTTGGTTTCTGGTTGTGCTAG | 2.26
TTTGATATCAGACTGGATTAGTGCTAG | 0.258
GACGGTTTCGGTTCCGGGACGTGCTAG | 10.2
ATTCCTTTGCCTCCAGGCGCGTGCTAG | 1.94
TCATCTCTAATTTTGAGACTGTGCTAG | 0.994
GACGGTCTCCTACTACTGACGTGCTAG | 1.56
TTAGATATCAGGACTGGATTAGTGCTA | 0.27
GACGAACTGAGCCTCGAGACGTGCTAG | -0.508
GACGAAATGAGTCTCGAGACGTGCTAG | -0.146
TTAGGATTGGACTATCGGTTAGTGCTA | -0.00857

Set 2
Target: Ras GTPase-activating protein-binding protein 1, C-terminal RGG region (G3BP1, Homo sapiens, UniProt Q13283)
Chain of UniProt Q13283 (whole entry, looked up): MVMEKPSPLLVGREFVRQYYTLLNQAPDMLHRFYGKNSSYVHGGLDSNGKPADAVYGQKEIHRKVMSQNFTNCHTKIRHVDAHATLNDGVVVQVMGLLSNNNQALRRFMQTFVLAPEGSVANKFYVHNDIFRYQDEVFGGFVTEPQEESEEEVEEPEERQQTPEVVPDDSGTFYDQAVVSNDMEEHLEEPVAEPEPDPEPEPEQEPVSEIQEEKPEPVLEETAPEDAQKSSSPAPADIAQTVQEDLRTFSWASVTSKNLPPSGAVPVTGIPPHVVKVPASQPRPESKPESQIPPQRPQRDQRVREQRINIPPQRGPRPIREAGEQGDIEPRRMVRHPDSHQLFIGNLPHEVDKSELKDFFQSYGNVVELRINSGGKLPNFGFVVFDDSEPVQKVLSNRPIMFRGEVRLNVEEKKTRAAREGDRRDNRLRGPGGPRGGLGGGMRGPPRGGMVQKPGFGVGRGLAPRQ
Method: RNA Bind-n-Seq
Form: RNA
Medium: in vitro
Concentration: 1 µM
Setting: whole 134-nt RNA, ends assumed
With: 150 mM KCl
Baseline: input library
Direction: higher = stronger binding
Shared flanks, not repeated: GGGAGUUCUACAGUCCGACGAUC … UGGAAUUCUCGGGUGUCAAGG
Sequence | log2 enrichment
AGUCCUGUGCUACACAUCGUAUGUACCGAAUCGGGAAAAAAAGGGUUUUUGGGUGGGAAAGUAUUAUGUUACGCCGUUCGGAUCUGCACU | 0.372
UCAAGUCCUGUGCUACACAUCGUAUGUACCGAAUCGGGGAAAGGAAAGGAAAGGAAAGUAUUAUGUUACGCCGUUCGGAUCUGCACUUCC | -1.61
ACCAUGCAGGUGGGCAUGUUUGGGAAGUGGGGCAAGGGGGGGAUAGGGAGGGGGGUAACACUUUGGGAACAGGUGGUCCCAGGUCGUUUC | -0.929
UUCCUCAAGUCCUGUGCUACACAUCGUAUGUACCGAAUCGGGAGGAGGAGGAAAGUAUUAUGUUACGCCGUUCGGAUCUGCACUUCCAGC | -1.26
GUCCUGUGCUACACAUCGUAUGUACCGAAUCGGUUUUUUUGGAAAAAAAGGAAAAAGGAAAGUAUUAUGUUACGCCGUUCGGAUCUGCAC | -1.77
CAAGUCCUGUGCUACACAUCGUAUGUACCGAAUCGGGAAAGGGAAAGGGGAAAGGAAAGUAUUAUGUUACGCCGUUCGGAUCUGCACUUC | -1.22
UUUUAGGAAGCUGCAGUAAAGGAAGAUGAAGAAGAAGUUUCAGAUAAGGGCAGUGAUUCUGAAGAAGAAGAAACCAAUAGAGAUUCCCAA | -1.41
CACAGACAACACGCACCCACACAGACACAGAGGGAAGGGGUUGGGAUGGGGACAGGGUGCCCAGCAGGGCGGGGUAGGACCCCAGCCCCU | -0.289
CAAGUCCUGUGCUACACAUCGUAUGUACCGAAUCGGCCCCGGCCCCGGGCCCCGGGAAAGUAUUAUGUUACGCCGUUCGGAUCUGCACUU | -2.05

Set 3
Target: RING finger protein unkempt homolog, zinc fingers 1-6, SBP tag (UNK, Homo sapiens, UniProt Q9C0B0, residues 30-357)
Chain of UniProt Q9C0B0 (30-357, looked up): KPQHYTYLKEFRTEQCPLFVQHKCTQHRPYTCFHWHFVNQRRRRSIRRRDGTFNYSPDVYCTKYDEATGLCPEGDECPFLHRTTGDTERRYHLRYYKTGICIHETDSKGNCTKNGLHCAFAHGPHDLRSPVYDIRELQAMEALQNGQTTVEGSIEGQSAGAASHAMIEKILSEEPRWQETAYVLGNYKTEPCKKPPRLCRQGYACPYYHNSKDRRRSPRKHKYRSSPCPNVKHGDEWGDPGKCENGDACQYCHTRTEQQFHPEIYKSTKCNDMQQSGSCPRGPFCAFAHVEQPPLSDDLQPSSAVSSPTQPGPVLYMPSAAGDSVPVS
Method: RNA Bind-n-Seq
Form: RNA
Medium: in vitro
Concentration: 100 nM
Setting: RNA with constant flanks, vertebrate orthologous sites, ends assumed
Baseline: input RNA pool
Direction: higher = stronger binding
Shared flanks, not repeated: GGGAGUUCUACAGUCCGACGAUC … CAACAGAGGAUUGAGCAUCA
Sequence | bound/input enrichment [ratio]
UCUACUGACCACUCACUGUUAUGUCUGGAUAUCUGUAAACACUUUUCUUUUUGUUCUUAGUCUUUUUCUUGUAUAAUUGAUGUUCUCUUAAAAUCGUUAAUGUAUCACAGGGCUGAUGUU | 1.23
AUUCAAACCUGUGGUACCUUGGCCCCAUGUGGAAGGGGUAGAAGUGGACUUGGAGUCUAUUAGAAGAAAAAACAAAGCCAAAAACGAGCAGGAGCAUCAAGUUGGGGGUAUCAACCAACA | 0.44
CAAUUCAAUGGUUGAGGGUUCAGAACUCAAAAAGGUUCGCUCCAACUCUAGAAUUUAUCAUAGGUACUUUUUACUGGAUGCCGACAUGCAGAGCCUGAGAUGGGAGCCAUCUAAGAAGGA | 0.359
UGACUCCGGAGGGGAGAGCUCACAAACUCAAAGGAAAACUAGUAGAGUUUCUAAUAAAGCUAGGAAACGGAAGGACAAUUUUACAAAUGAGCGAUUAGAAAUGAAACAAAAGGAAGGCGG | 0.514
AUAGGAGCAGCAUAGGCUUUUUGAGCUUUGGGGAAAUGAGCUUUGUGUUUUAUAUUUAAAUGGGAUAUGUUUAUAUGAUGGGUGCUUUGAGUGUGAAUGCAGCAGGCUCUCCUCCAUUUU | 1.26
CCGGGUCCUCCCGCACCGACCCCAGGCUCAGGGACCAGGUGUUGCAUUGAGGACCUGCCUUUCAAACACUUUUUUAAAUUGUCCAGCAAGAGAUGUGACCAAAACAGCAUCUCAAAGUCG | 0.304
AUUCAAACCUGUGGUACCAUGGCCUCACGUGGAAGGAGUAGAAGUGGAUUUAGAAUCCAUUCGAAGAAAAAACAAGGCUAAAAAUGCACAAGAACACCAUGCUGGCGGAGAUUCCCAAAA | 0.196
UCCUCAACUUGUUCUAGCUUGUGAUCCUUCAAAGUUGGGUCAUACAUUAGUGCUAGAUACUAGAAAUUUUCACUUUUCCACUGAUCAGAGAGACAGACAUUAAAAACAAAAAUAGAAGAA | 1.87

Set 4
Target: Histone acetyltransferase KAT6A, both winged helices, GST fusion (KAT6A, Homo sapiens, UniProt Q92794, residues 1-181)
Method: protein binding microarray
Form: double-stranded DNA, one strand shown
Medium: in vitro
Concentration: not given
Setting: 8-mer, flanks averaged, mean of 2 arrays, mostly near background
Baseline: not given
Direction: higher = stronger binding
Construct (chain): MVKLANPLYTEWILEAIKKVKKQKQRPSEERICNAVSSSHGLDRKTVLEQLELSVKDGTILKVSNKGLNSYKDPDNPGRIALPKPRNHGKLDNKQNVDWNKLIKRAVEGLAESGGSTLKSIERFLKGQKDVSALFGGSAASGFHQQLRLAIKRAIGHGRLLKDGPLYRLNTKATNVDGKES
Sequence | E-score
ACTCTAAA | -0.167
TAACTTGA | -0.153
ACTTCAAC | -0.119
AAAAAGAC | -0.105
AGCTCGTG | -0.059
CGTTACGA | 0.0786
CTTTTGCC | -0.00038
ATTTGAGA | -0.035
AAAGGGCT | -0.212
TGATTGCA | -0.173
GTGGGATA | -0.0383
AACATAAG | 0.00388
AAACAGGG | -0.179
CCATCTAA | -0.0967
CCAACACC | -0.105
GAAGTTGC | -0.0969
AGTCCATA | -0.187
GGCCCGAA | 0.164

For quick reference, copied from above (set 3):
Sequence | bound/input enrichment [ratio]
AUAGGAGCAGCAUAGGCUUUUUGAGCUUUGGGGAAAUGAGCUUUGUGUUUUAUAUUUAAAUGGGAUAUGUUUAUAUGAUGGGUGCUUUGAGUGUGAAUGCAGCAGGCUCUCCUCCAUUUU | 1.26
CAAUUCAAUGGUUGAGGGUUCAGAACUCAAAAAGGUUCGCUCCAACUCUAGAAUUUAUCAUAGGUACUUUUUACUGGAUGCCGACAUGCAGAGCCUGAGAUGGGAGCCAUCUAAGAAGGA | 0.359
UCCUCAACUUGUUCUAGCUUGUGAUCCUUCAAAGUUGGGUCAUACAUUAGUGCUAGAUACUAGAAAUUUUCACUUUUCCACUGAUCAGAGAGACAGACAUUAAAAACAAAAAUAGAAGAA | 1.87
AUUCAAACCUGUGGUACCUUGGCCCCAUGUGGAAGGGGUAGAAGUGGACUUGGAGUCUAUUAGAAGAAAAAACAAAGCCAAAAACGAGCAGGAGCAUCAAGUUGGGGGUAUCAACCAACA | 0.44
AUUCAAACCUGUGGUACCAUGGCCUCACGUGGAAGGAGUAGAAGUGGAUUUAGAAUCCAUUCGAAGAAAAAACAAGGCUAAAAAUGCACAAGAACACCAUGCUGGCGGAGAUUCCCAAAA | 0.196
UCUACUGACCACUCACUGUUAUGUCUGGAUAUCUGUAAACACUUUUCUUUUUGUUCUUAGUCUUUUUCUUGUAUAAUUGAUGUUCUCUUAAAAUCGUUAAUGUAUCACAGGGCUGAUGUU | 1.23
